{"data": "Measured values of several laboratories", "CDK12 with cyclin K": "Cyclin-dependent kinase 12, with cyclin K (CDK12, Homo sapiens, UniProt Q9NYV4)", "Genome polyprotein NS2B-NS3 protease": "Genome polyprotein, NS2B-NS3 protease (dengue virus type 2, UniProt P29990)", "CNR2": "Cannabinoid receptor 2 (CNR2, Homo sapiens, UniProt P34972)", "SIRT5": "NAD-dependent protein deacylase sirtuin-5, mitochondrial (SIRT5, Homo sapiens, UniProt Q9NXA8)", "TNKS": "Poly [ADP-ribose] polymerase tankyrase-1 (TNKS, Homo sapiens, UniProt O95271)", "note": "Compare with care: the assays were run in different laboratories."}
{"SMILES": "Cc1cccc(O[C@H]2CCC[C@@H](C(C)CNCc3ccncc3)C2)c1 (relative stereo)", "target": "PAS domain-containing serine/threonine-protein kinase (PASK, Homo sapiens, UniProt Q96RG2)", "test": "enzyme activity, inhibitor", "setting": "1 µM", "inhibition [%]": 0}
{"SMILES": "CN1CC[C@@H](COc2cnc(C#N)cc2-c2ccn3nc(NC(=O)C4CC4)cc3c2)C1", "target": "CDK12 with cyclin K", "test": "enzyme activity, inhibitor", "setting": "1 µM", "inhibition [%]": 9}
{"SMILES": "CCn1cc(C(=O)O)c(=O)c2c(N)c(F)c(NC3CCCCC3)cc21", "target": "[Pyruvate dehydrogenase (acetyl-transferring)] kinase isozyme 1, mitochondrial (PDK1, Homo sapiens, UniProt Q15118)", "test": "kinase activity", "setting": "0.1 µM, with: ATP at Km", "inhibition [%]": 19.9}
{"SMILES": "CCCCCCCCCCCCCCCC(=O)N[C@@H](CCCCN)C(=O)N[C@@H](CCCCN)C(=O)N[C@@H](CO)C(=O)N[C@@H](CCCNC(=N)N)C(=O)N[C@@H](C)C(=O)N[C@@H](CC(C)C)C(=O)N[C@@H](Cc1ccccc1)C(N)=O", "target": "Proteinase-activated receptor 4 (F2RL3, Homo sapiens, UniProt Q96RI0)", "test": "platelet aggregation, ex vivo LTA", "system": "human", "setting": "0.5 mg/kg, 14 days, with: AYPGKF 160 µM", "how to read": "reference: baseline", "inhibition [%]": 26}
{"SMILES": "CN(C(=O)n1ccnn1)c1ccccc1", "target": "Acylamino-acid-releasing enzyme (Apeh, Mus musculus, UniProt Q8R146)", "test": "serine hydrolase activity, inhibitor, competitive gel-based ABPP", "system": "mouse T-cell proteome", "setting": "1 µM, 30 min, 37 °C", "inhibition [%]": "< 50"}
{"SMILES": "CO[C@@H](C)c1c(NC(=O)Nc2cnc(-n3nccn3)c(C(F)(F)F)c2)cnc2sc(C)nc12", "target": "Vasoactive intestinal polypeptide receptor 1 (VIPR1, Homo sapiens, UniProt P32241)", "test": "ligand displacement, radioligand", "setting": "10 µM", "inhibition [%]": 2.4}
{"SMILES": "CC(=O)[C@]12NC(C)(C)C[C@@]1(C)C(=O)C1=C2c2c(c3c4n2C(C)(C)CC2=C4[C@@]4(CC(C)(C)N[C@@](C)(C4)C2=O)CC3(C)C)C(=O)C(C)(C)N1 (racemic)", "target": "Transient receptor potential cation channel subfamily V member 4 (TRPV4, Homo sapiens, UniProt Q9HBA0)", "test": "ion current, inhibitor, patch clamp", "system": "HEK-293T", "setting": "10 µM", "inhibition [%]": 9.53}
{"SMILES": "Cc1onc(-c2ccc(F)cc2)c1C(=O)Nc1cccc(C(N)=O)c1", "target": "Genome polyprotein NS2B-NS3 protease", "test": "enzyme activity, fluorogenic AMC substrate", "setting": "50 µM", "inhibition [%]": 18}
{"SMILES": "C[Si](C)(C)C[C@@H](CN)CC(=O)O", "target": "CNR2", "test": "ligand displacement, radioligand", "setting": "75 µM", "inhibition [%]": 11}
{"SMILES": "O=C1c2sc(-c3ccc(N4CCC(F)C4)nc3F)nc2CCN1c1cccnc1 (centres unmarked)", "target": "CNR2", "test": "ligand displacement, radioligand", "setting": "1 µM", "inhibition [%]": -27}
{"SMILES": "COc1ccc(C(=O)/C=C/c2ccccc2-c2c[nH]c3ccc(C#N)cc23)c(O)c1", "target": "CDK12 with cyclin K", "test": "enzyme activity, inhibitor", "setting": "20 µM", "inhibition [%]": 2}
{"SMILES": "CCCCCCCCCCCCCC(=S)NCCCC[C@H](NC(=O)OCc1ccccc1)C(=O)Nc1ccccc1", "target": "SIRT5", "test": "enzyme activity, inhibitor", "setting": "100 µM", "inhibition [%]": "< 5"}
{"SMILES": "O=C1c2sc(-c3ccc(N4CCC(CO)CC4)nc3F)nc2CCN1c1cccnc1", "target": "Substance-K receptor (TACR2, Homo sapiens, UniProt P21452)", "test": "ligand displacement, radioligand", "setting": "1 µM", "inhibition [%]": 7}
{"SMILES": "O=C(/C=C/c1cccc(OS(=O)(=O)Oc2ccc(Br)cc2)c1)NO", "target": "Histone deacetylase 4 (HDAC4, Homo sapiens, UniProt P56524)", "setting": "10 µM", "inhibition [%]": 17}
{"SMILES": "O=C1CO[C@H](CNC(=O)C2(c3ccc(Cl)cc3)CC2)CN1C1Cc2ccccc2C1", "target": "C-C chemokine receptor type 8 (CCR8, Homo sapiens, UniProt P51685)", "test": "β-arrestin recruitment, antagonist", "setting": "1 µM", "inhibition [%]": 1}
{"SMILES": "O=C(c1cc(-c2ccccc2)n(-c2ccccc2)n1)N1CCN(Cc2ccccn2)CC1", "target": "Genome polyprotein NS2B-NS3 protease", "test": "reporter gene", "system": "HeLa", "setting": "12.5 µM", "inhibition [%]": 42}
{"SMILES": "Cc1cc(C(=O)NCCNC(=O)c2cccc(COc3ccccc3C(N)=O)c2)n[nH]1", "target": "TNKS", "test": "enzyme activity, inhibitor", "setting": "0.5 µM", "inhibition [%]": 100}
{"SMILES": "O=C(NC1CCC1)[C@H](Cc1c[nH]c2ccccc12)NC(=O)[C@H](CCCCNC(=S)NCCP(=O)(O)O)NS(=O)(=O)c1cccc(F)c1", "target": "SIRT5", "test": "enzyme activity, inhibitor", "setting": "100 µM", "inhibition [%]": 18}
{"SMILES": "O=C(NC(c1ccccn1)c1ccccn1)c1cc(-c2ccccc2)n(-c2ccccc2)n1", "target": "Genome polyprotein NS2B-NS3 protease", "test": "reporter gene", "system": "HeLa", "setting": "12.5 µM", "inhibition [%]": 53}
{"SMILES": "CN(C)C/C=C/C(=O)Nc1ccc2nc(NCCCCCN(C)C)nc(NCCCCCCN(C)C)c2c1", "target": "Protein arginine N-methyltransferase 9 (PRMT9, Homo sapiens, UniProt Q6P2P2)", "test": "enzyme activity, inhibitor, radiometric", "setting": "10 µM", "inhibition [%]": 57}
{"SMILES": "COc1cc(-c2cn(C)c(=O)c3cnccc23)cc(OC)c1CN(C)C", "target": "Chromatin remodeling regulator CECR2 (CECR2, Homo sapiens, UniProt Q9BXF3)", "setting": "1 µM", "inhibition [%]": 97.2}
{"SMILES": "Brc1ccccc1-c1nnc(CSc2nnnn2-c2ccccc2)o1", "target": "Histamine H4 receptor (HRH4, Homo sapiens, UniProt Q9H3N8)", "test": "ligand displacement, radioligand", "setting": "10 µM", "inhibition [%]": 8}
{"SMILES": "NC(=O)c1cccc(NC(=O)c2cc(-c3ccccc3)nn2-c2ccccc2)c1", "target": "Genome polyprotein NS2B-NS3 protease", "test": "enzyme activity, fluorogenic AMC substrate", "setting": "50 µM", "inhibition [%]": 12}
{"SMILES": "O=C(CC1CC2CCC1C2)NCCNC(=O)Cn1c(=O)[nH]c(=O)c2ccccc21 (centres unmarked)", "target": "TNKS", "test": "enzyme activity, inhibitor", "setting": "0.104 µM", "inhibition [%]": 83}
{"SMILES": "O=C(Nc1cccc(CNc2ncccn2)c1)c1cc(-c2ccccc2)n(-c2ccccc2)n1", "target": "Genome polyprotein NS2B-NS3 protease", "test": "enzyme activity, fluorogenic AMC substrate", "setting": "50 µM", "inhibition [%]": 67}
{"SMILES": "COCC(=O)N1CCc2cc(-c3csc(NC(=O)c4cc(OC)cc(OC)c4)n3)ccc21", "target": "Alpha-1D adrenergic receptor (ADRA1D, Homo sapiens, UniProt P25100)", "test": "cell-free assay", "setting": "10 µM", "inhibition [%]": 5}
{"SMILES": "Cc1ccc(-n2nc(C(N)=O)cc2-c2ccc(CC(C)C)cc2)cc1", "target": "Genome polyprotein NS2B-NS3 protease", "test": "enzyme activity, fluorogenic AMC substrate", "setting": "50 µM", "inhibition [%]": 64}
{"SMILES": "C/C=C/C(=O)Nc1ccc2nc(NCCCCCN(C)C)nc(NCCCCCCN(C)C)c2c1", "target": "Histone-lysine N-methyltransferase 2A (KMT2A, Homo sapiens, UniProt Q03164)", "test": "enzyme activity, inhibitor, radiometric", "setting": "50 µM", "inhibition [%]": 16}
{"SMILES": "N#Cc1cc(NC(=O)c2cc(-c3ccccc3)n(-c3ccccc3)n2)ccc1N1CCC2(CC1)CNC2", "target": "Genome polyprotein NS2B-NS3 protease", "test": "enzyme activity, fluorogenic AMC substrate", "setting": "50 µM", "inhibition [%]": 75}
{"SMILES": "CC(C)c1ccccc1OS(=O)(=O)Oc1cccc(C(=O)NO)c1", "target": "Histone deacetylase 11 (HDAC11, Homo sapiens, UniProt Q96DB2)", "setting": "0.5 µM", "inhibition [%]": 9}
{"SMILES": "N#Cc1c(Nc2ccccc2C(F)(F)F)s[nH]c1=O", "target": "TNKS", "test": "enzyme activity, inhibitor", "setting": "10 µM", "inhibition [%]": 20}
{"SMILES": "Cc1cccc(N2CCC(C(=O)Nc3cccc(C(N)=O)c3)C2=O)c1 (centres unmarked)", "target": "Genome polyprotein NS2B-NS3 protease", "test": "reporter gene", "system": "HeLa", "setting": "12.5 µM", "inhibition [%]": 11}
{"note": "Repeated from above:"}
{"SMILES": "O=C(Nc1cccc(CNc2ncccn2)c1)c1cc(-c2ccccc2)n(-c2ccccc2)n1", "target": "Genome polyprotein NS2B-NS3 protease", "test": "enzyme activity, fluorogenic AMC substrate", "setting": "50 µM", "inhibition [%]": 67}
{"SMILES": "O=C1CO[C@H](CNC(=O)C2(c3ccc(Cl)cc3)CC2)CN1C1Cc2ccccc2C1", "target": "C-C chemokine receptor type 8 (CCR8, Homo sapiens, UniProt P51685)", "test": "β-arrestin recruitment, antagonist", "setting": "1 µM", "inhibition [%]": 1}
{"SMILES": "COc1cc(-c2cn(C)c(=O)c3cnccc23)cc(OC)c1CN(C)C", "target": "Chromatin remodeling regulator CECR2 (CECR2, Homo sapiens, UniProt Q9BXF3)", "setting": "1 µM", "inhibition [%]": 97.2}
{"SMILES": "CCCCCCCCCCCCCC(=S)NCCCC[C@H](NC(=O)OCc1ccccc1)C(=O)Nc1ccccc1", "target": "SIRT5", "test": "enzyme activity, inhibitor", "setting": "100 µM", "inhibition [%]": "< 5"}
{"SMILES": "Cc1cccc(N2CCC(C(=O)Nc3cccc(C(N)=O)c3)C2=O)c1 (centres unmarked)", "target": "Genome polyprotein NS2B-NS3 protease", "test": "reporter gene", "system": "HeLa", "setting": "12.5 µM", "inhibition [%]": 11}
